Published values pooled from the literature.
A part holds a random share of what one study measured. Changes are numbered by the printed parent chain.

Study 1
Target: ABI1, truncated, D143A, DHFR fusion (Arabidopsis thaliana, UniProt P49597)
Method: DHFR PCA, dose-response
Sample: yeast
Setting: Hill fit, not affinity, not high confidence
With: (+)-ABA, dose series
Direction: lower = more sensitive
Starting sequence: PYL1, truncated, DHFR fusion (Arabidopsis thaliana, UniProt Q8VZS8); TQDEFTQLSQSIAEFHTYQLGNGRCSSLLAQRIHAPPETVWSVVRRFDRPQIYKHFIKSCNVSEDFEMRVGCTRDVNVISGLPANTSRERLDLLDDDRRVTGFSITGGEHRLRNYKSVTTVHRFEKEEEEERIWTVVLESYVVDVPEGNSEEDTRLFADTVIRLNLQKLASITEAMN
Variant | ABA EC50 [µM]
R74P | 11.5
F47L | 0.218
T135N | 1820
V78N | 256
N149F | 316
D97E | 1.55
V78D | 7.8

Study 2
Target: RING finger protein unkempt homolog, zinc fingers 1-6, GST-SBP tag (UNK, Homo sapiens, UniProt Q9C0B0, residues 30-357)
Method: RNA Bind-n-Seq
Molecule type: RNA
Sample: in vitro
Concentration: not given
Setting: RNA with constant flanks, human and mouse sites, ends assumed
Reference: input RNA pool
Direction: higher = stronger binding
All sequences stand within: GGGAGUUCUACAGUCCGACGAUC … CAACAGAGGAUUGAGCAUCA
Target sequence (chain): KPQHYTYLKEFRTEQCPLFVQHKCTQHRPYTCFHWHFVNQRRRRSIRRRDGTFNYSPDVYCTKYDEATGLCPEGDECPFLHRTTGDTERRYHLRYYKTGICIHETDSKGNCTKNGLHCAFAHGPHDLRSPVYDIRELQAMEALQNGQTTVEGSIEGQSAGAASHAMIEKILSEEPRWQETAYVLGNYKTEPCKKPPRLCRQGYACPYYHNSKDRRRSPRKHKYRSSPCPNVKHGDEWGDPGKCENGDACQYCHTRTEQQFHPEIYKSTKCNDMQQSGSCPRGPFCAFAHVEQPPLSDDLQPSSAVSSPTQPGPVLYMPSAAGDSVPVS
Oligonucleotide | bound/input enrichment [ratio]
GCAGGUAUUCAGUACACAAUGCAGGCAUUAGUUUCUCAGUUAAAAAACAAGGAGAGACAGUAGCUGAUGUUAGGACACUACCCAAUGCCUCAACCGUGGACAAUAUUCGCUCCAUCUUUG | 0.0866
UAAUCUCAUUCCUUUUGAUUGUUAAUGUUUUUGUUCAGUUGUUGUUGUUUGUUGGGUUUUUGUUUCUGUUGGUUAUUUUUGGACACUGGUGGCUCAGCAGUCUAUUUAUAUUUUCUAUAU | 0.879
UCUAUUGCUACAAGAGAGGGAGUUGCUGUUCUGUAUUCUAAACUGGUUAGCAAUAAGGAAGUAGUACCUUUGCCCCAACAAGUUUUAUGCCUCAAAGGACCACAGUUGCCAGACUUUGAA | 0.154
GCUGGCCUCAGGAUUGCAGGACCUUUUGGGUUAAGUCUAGUGCAGCGUUUGAGGCCUGAUUUCAAGCGGAAGUACUCCUCUAUGUUUGAAGAUGACACGGUGACAGAGUACAUCUACCAC | 0.141
CAGCUGUGUCUUCUAAAGUGGAUCAGUGAGAGAGGCUCCUGGACCUGCGAGCUGUGCUGUUAUAGAUACCACGUCACAGCCAUUAAAAUGAAGCAACCUUGCCAGUGGCAGAGCAUUUCU | 0.147
AACUUUGCAUUUAAAGAGCAAAUCCAGGCCCACACUCUGUUCACGCCGCUGCUCAUUGGCUUUGUGGUUGCAGCUGGCGCGAUGGGGAUCAUUGUGAUGGUGCUCACCUACAAAUAUUUG | 0.216
CUCCCCCAAGCAGAUCCUGGGAUGGGUGAGAGAAAAUGGGGAAAGAGGGUGUCCCUCCCAUCCCCCUUCUGCCCAGCUCUCAUCAAUUGUCAGACCCACCAGAGCUGAGGGCAGAGGGAC | 0.126
AGUAGUACCAGUUUGCCACCUGUCGCUGAUGAAAGCCCAGUCACUGUAAAACCAGAUAGUCAACUUGAAGACAUGGGAUACUGUGUGUUCAACAAGUACACAGUCCCUCUCCCAUCACCA | 0.297
UUUUAGAGAAAAUACUGUUACUUGGCAUUAAUUGUCCAUUUACAGUGUUCUGUUAAGUUCCUCAUGCUAUGCACCUUACAUAAUUUCCCUAAAGAACAGUCAUCUAUCACUGUGGUGUUA | 0.244

Study 3
Target: CCNB1, cyclin fold, Cln2 fusion (human)
Method: yeast growth competition, sequencing
Sample: yeast
Setting: weak parent motif
Reference: not given
Direction: higher = stronger binding
Starting sequence: HIRA docking peptide (human); SLSKRKLELEVET
Variant | normalised enrichment score
SLSKRKLELEVAT [E12A] | 0.225
SLSKRKLALEVET [E8A] | 0.273
ALSKRKLELEVET [S1A] | 0.761
SLAKRKLELEVET [S3A] | -0.408
SLSKRKLEFEVET [L9F] | 0.0073
SLSKRKLELEAET [V11A] | -0.836
SASKRKLELEVET [L2A] | 0.322

Mixed results
Substance | target | test | system | setting | how to read | measurement | result
PhoQ, residues 284 288 289 292 302 303 GASLAW | PhoP, residues 12 14 15 18 19 SPWRL (Escherichia coli, UniProt P23836) | Sort-seq, item: YFP reporter | E. coli | PhoQ-PhoP variant library, with: 10 µM Mg2+ | reference: high Mg2+ state, higher = stronger signaling | fold induction | 0.645

Repeated from above (study 1):
Variant | ABA EC50 [µM]
N149F | 316
